Assay results pooled from the literature.
Compare with care: the assays were run in different laboratories. ± marks the error that the study gave.
MAPT PHF6* peptide: Microtubule-associated protein tau, PHF6* peptide (MAPT, Homo sapiens, UniProt P10636)
DCPS: m7GpppX diphosphatase (DCPS, Homo sapiens, UniProt Q96C86)
CASP10: Caspase-10 (CASP10, Homo sapiens, UniProt Q92851)

COC(=O)[C@@]1(C)C=C(C(=O)Nc2cccc(C(=O)Nc3ccc(Nc4nccc(-c5cccnc5)n4)c(C)c3)c2)C(=O)CC1  normalized fluorescence polarization (Mitogen-activated protein kinase 8, docking groove (MAPK8, Homo sapiens, UniProt P45983); peptide binding, inhibitor, fluorescence polarization; 3.125 µM, together with: JIP1 peptide probe): 0.925
Cc1cc(=O)oc2c(F)c(OP(=O)(O)O)c(F)cc12  kcat (PTPN11 (Homo sapiens, UniProt Q06124); dephosphorylation, substrate; fully activated enzyme): 150 ± 4 s⁻¹
CN(Cc1cc(C2CC2)on1)C(=O)c1cccc(-c2ccc3c(c2)CCO3)c1  reaction rate (Acetyl-CoA synthetase (Cryptococcus neoformans, UniProt J9VFT1); enzyme activity, inhibitor, coupled pyrophosphate; 3.91 µM; higher is more activity): 0.00102 a.u.
CC(C)[C@H](NC(=O)[C@@H](NC(=O)[C@H](Cc1ccccc1)NC(=O)[C@@H](N)CO)[C@@H](C)O)C(=O)N[C@@H](CCCNC(=N)N)C(=O)N[C@@H](C)C(N)=O  ThT fluorescence (MAPT PHF6* peptide; fibril formation, ThT fluorescence; 1-fold of peptide, pH 7.4, together with: Ac-PHF6* 25 µM, heparin; relative to: untreated): 125 ± 4%
CC[C@H](C)[C@@H]1NC(=O)[C@H](Cc2ccccc2)NC(=O)[C@H](CCC(=O)O)NC(=O)[C@H](CCCNC(=N)N)NC(=O)CNC(=O)[C@@H](NC(=O)[C@H](CC(C)C)NC(=O)[C@H](CCCNC(=N)N)NC(=O)[C@@H](NC(=O)CNC(=O)[C@H](Cc2ccc(O)cc2)NC(=O)[C@@H]2CCCN2C(=O)[C@H](C)NC(=O)[C@H](C)NC(=O)[C@@H](N)CCCNC(=N)N)C(C)C)CSSC[C@@H]2NC(=O)[C@@H](NC(=O)[C@H](CO)NC(=O)[C@H](CO)NC(=O)[C@H](CO)NC(=O)[C@H](CC(C)C)NC(=O)CNC(=O)[C@H](C)NC(=O)[C@H](CC(C)C)NC(=O)[C@@H](NC(=O)[C@@H](N)CC(=O)O)C(C)C)CSSC[C@H](NC(=O)CNC(=O)[C@H](Cc3c[nH]c4ccccc34)NC(=O)[C@H](CCCCN)NC2=O)C(=O)N[C@@H](CO)C(=O)N[C@@H](CCCCN)C(=O)N[C@@H](CO)C(=O)N[C@@H](CCC(=O)O)C(=O)N[C@@H]([C@@H](C)CC)C(=O)N[C@@H](CO)C(=O)N[C@@H](CO)C(=O)N[C@@H](CC(C)C)C(=O)N[C@H](C(=O)O)CSSC[C@@H](C(=O)NCC(=O)NCC(=O)N[C@@H](CO)C(=O)N[C@@H](CCCNC(=N)N)C(=O)N[C@@H](Cc2c[nH]c3ccccc23)C(=O)O)NC(=O)[C@H]([C@@H](C)O)NC(=O)[C@H](Cc2ccccc2)NC(=O)[C@H]([C@@H](C)CC)NC(=O)[C@H](C(C)C)NC(=O)[C@H](C)NC(=O)[C@H](CCCNC(=N)N)NC1=O  Emax (RXFP3 (Homo sapiens, UniProt Q9NSD7, L248A); HEK-293T; relative to: wild type): 64.8 ± 6.43%
C[n+]1cn(C2OC(COP(=O)(O)OP(=O)([O-])C(Cl)(Cl)P(=O)(O)O)C(O)C2O)c2nc(N)nc(O)c21 (stereo not shown)  hydrolysis (DCPS; substrate, HPLC; concentration not given, 30 min): 0.7%
CC(=O)N[C@H](C(=O)N[C@@H](CCC(=O)O)C(=O)N[C@@H](CCCCN(C)C)C(=O)N[C@@H](CC(=O)O)C(=O)COC(=O)c1c(C)cccc1C)C(C)C  kinact/KI (CASP10; enzyme activity, inhibitor): 63900 M⁻¹ s⁻¹
O=c1cc(NCc2ccco2)c2ccccc2o1  agonist activity (ADRA1A (Homo sapiens, UniProt P35348); intracellular Ca2+ mobilization, agonist; COS-7; 500 µM; relative to: 3 µM ionomycin): 0.5 ± 0.11%
CC[C@H](C)[C@H](NC(=O)[C@@H](NC(=O)[C@@H](NC(=O)[C@@H](NC(=O)[C@@H](N)CCCCN)C(C)C)C(C)C)C(C)C)C(=O)N[C@H](C(N)=O)[C@@H](C)O  ThT fluorescence (MAPT PHF6* peptide; fibril formation, ThT fluorescence; 1-fold of peptide, pH 7.4, together with: Ac-PHF6* 25 µM, heparin; relative to: untreated): 82 ± 1%
CC(C)[C@@H]1NC(=O)[C@H](Cc2ccccc2)NC(=O)CSC[C@@H](C(N)=O)NC(=O)[C@H](CCC(=O)O)NC(=O)[C@H](CO)NC(=O)[C@H](Cc2c[nH]c3cccc(Cl)c23)NC(=O)[C@H](C2CCCCC2)NC(=O)[C@H](C(C)C)NC(=O)[C@H](Cc2ccc(O)cc2)NC(=O)[C@H](CC(=O)O)NC(=O)[C@H](Cc2c[nH]c3ccccc23)NC(=O)[C@H](Cc2ccc(N)nc2)NC(=O)[C@H](Cc2c[nH]c3ccc(Cl)cc23)NC(=O)[C@H](CCC(=O)O)NC1=O  remaining activity (Interleukin-1 receptor-like 2 (IL1RL2, Homo sapiens, UniProt Q9HB29); reporter gene (SEAP), inhibitor, HEK-Blue IL-36R reporter; HEK-Blue IL-36R cells; 33.33 µM, 6 h, together with: IL-36β 1 ng/mL): 25.7%
CC(C=CC=C(C)C=CC1=C(C)CCCC1(C)C)=CC=O  Pearson correlation coefficient (Rhodopsin (RHO, Homo sapiens, UniProt P08100, T17M); ER retention, immunostaining co-localization, refers to: opsin with calnexin; COS-7 transfected T17M; 0.05 µM): 0.71
CSCC[C@@H]1NC(=O)[C@H](C(C)C)NC(=O)[C@H](CCCNC(=N)N)NC(=O)[C@@H]2CCCN2C(=O)CNC(=O)[C@@H](NC(=O)CNC(=O)[C@H](CO)NC(=O)CNC(=O)[C@H](CO)NC(=O)CCCC[C@@H]2SC[C@@H]3NC(=O)N[C@@H]32)CSSC[C@@H](C(N)=O)NC(=O)[C@@H]2CCCN2C(=O)CNC(=O)[C@H](CCC(=O)O)NC(=O)[C@H](CC(=O)O)NC(=O)[C@H](CC(=O)O)NC(=O)CNC(=O)[C@H](CC(C)C)NC(=O)[C@H](Cc2c[nH]cn2)NC(=O)[C@H](CC(C)C)NC(=O)CNC(=O)[C@H](Cc2c[nH]cn2)NC1=O  kon (Col1a1/Col1a2 (Rattus norvegicus, UniProt P02454+P02466); binding, bio-layer interferometry; biotinylated peptide on streptavidin biosensor; together with: collagen 0 to 8 µM): 11400 M⁻¹ s⁻¹
CCCC[C@H](NC(=O)[C@H](CC(=O)O)NC(C)=O)C(=O)N[C@H](C(=O)N[C@@H](CC(=O)O)C(=O)COC(=O)c1c(C)cccc1C)[C@@H](C)OCc1ccccc1  kinact/KI (Caspase-8 (CASP8, Homo sapiens, UniProt Q14790); enzyme activity, inhibitor): 1.43e+06 M⁻¹ s⁻¹
CCCCCCCCCCCCC/C=C/C=O  isoTOP-ABPP competition ratio (Mannose-1-phosphate guanylyltransferase regulatory subunit alpha (GMPPA, Homo sapiens, UniProt Q96IJ6); competitive isoTOP-ABPP, refers to: GMPPA cysteine peptide; Ramos soluble proteome; 100 µM, together with: iodoacetamide probe; relative to: DMSO over compound-treated, higher = stronger cysteine blockade): 0.95
CC(=O)N1c2ccc(-c3ccc(CNC(=O)c4cn5cc(-c6cnc(N)nc6)nc(N6CCOCC6)c5n4)cc3)cc2CC[C@@H]1C  remaining binding (ATAD2B (Homo sapiens, UniProt Q9ULI0); binding, competition with immobilised ligand; 10 µM): 87%
O=c1c(-c2ccccc2Br)coc2cc(O)ccc12  DHEA metabolism (HSD3B1 (Homo sapiens, UniProt P14060); [3H]-DHEA conversion; LNCaP; 0.1 µM, normalized to protein, unit not given; relative to: vehicle): 0
CC(=O)N[C@@H](CC(C)C)C(=O)N[C@@H](Cc1ccccc1)C(=O)N[C@@H](CO)C(=O)N[C@@H](CC(=O)O)C(=O)COC(=O)c1c(C)cccc1C  kinact/KI (CASP10; enzyme activity, inhibitor): 355000 M⁻¹ s⁻¹
C[Si]1(C[C@H](CN)CC(=O)O)CCCC1  inhibition (SLC6A4 (Homo sapiens, UniProt P31645); ligand displacement, radioligand; 70 µM): 7%
C#CCOC(=O)[C@]1(C)C=C(C(=O)OC(C)(C)C)C(=O)CC1  normalized kinase activity (MAPK8 (Homo sapiens, UniProt P45983); enzyme activity, D-SENSOR; 0.02032 µM, mean of replicates): 1.03
C[n+]1cn([C@@H]2O[C@H](COP(=O)([O-])OP(=O)(O)CP(=O)(O)OP(=O)(O)OC[C@H]3O[C@@H](n4cnc5c(=O)[nH]c(N)nc54)[C@H](O)[C@@H]3O)[C@@H](O)[C@H]2O)c2nc(N)nc(O)c21  hydrolysis (DCPS; substrate, HPLC; concentration not given, 30 min): 0%
N#CN1CC[C@H](C(=O)Nc2nc3c(s2)CN(C(=O)Cn2cc(CNC(=O)CCCC[C@@H]4SC[C@@H]5NC(=O)N[C@@H]54)nn2)CC3)C1  iBAQ abundance (PCMT1 (Homo sapiens, UniProt P22061); probe binding, affinity probe, neutravidin pull-down LC-MS/MS; HEK293T, cell lysate; 5 µM, 1 h, mean of three replicates, unit not given; higher = more pulled down): 2.49e+08
CNC(=O)C[C@H](Cc1ccc(C#N)cc1)NC(=O)c1cc(-c2ccc(CN[C@H](C)c3ccc(C)cc3)o2)ccc1Cl  activity vs control (PIP4K2A (Homo sapiens, UniProt P48426); enzyme activity, inhibitor; 1 µM): 100%

A few entries again:
C[n+]1cn([C@@H]2O[C@H](COP(=O)([O-])OP(=O)(O)CP(=O)(O)OP(=O)(O)OC[C@H]3O[C@@H](n4cnc5c(=O)[nH]c(N)nc54)[C@H](O)[C@@H]3O)[C@@H](O)[C@H]2O)c2nc(N)nc(O)c21  hydrolysis (DCPS; substrate, HPLC; concentration not given, 30 min): 0%
O=c1c(-c2ccccc2Br)coc2cc(O)ccc12  DHEA metabolism (HSD3B1 (Homo sapiens, UniProt P14060); [3H]-DHEA conversion; LNCaP; 0.1 µM, normalized to protein, unit not given; relative to: vehicle): 0
